Experimental data collected from several papers.
Each line is one published result; not all experiments were run side by side. Numbers after ± are the reported error.
Nuclear receptor subfamily 2 group C member 2 ligand-binding domain: Nuclear receptor subfamily 2 group C member 2, ligand-binding domain (Homo sapiens, UniProt P49116)
Chain of UniProt P49116 (whole entry, looked up): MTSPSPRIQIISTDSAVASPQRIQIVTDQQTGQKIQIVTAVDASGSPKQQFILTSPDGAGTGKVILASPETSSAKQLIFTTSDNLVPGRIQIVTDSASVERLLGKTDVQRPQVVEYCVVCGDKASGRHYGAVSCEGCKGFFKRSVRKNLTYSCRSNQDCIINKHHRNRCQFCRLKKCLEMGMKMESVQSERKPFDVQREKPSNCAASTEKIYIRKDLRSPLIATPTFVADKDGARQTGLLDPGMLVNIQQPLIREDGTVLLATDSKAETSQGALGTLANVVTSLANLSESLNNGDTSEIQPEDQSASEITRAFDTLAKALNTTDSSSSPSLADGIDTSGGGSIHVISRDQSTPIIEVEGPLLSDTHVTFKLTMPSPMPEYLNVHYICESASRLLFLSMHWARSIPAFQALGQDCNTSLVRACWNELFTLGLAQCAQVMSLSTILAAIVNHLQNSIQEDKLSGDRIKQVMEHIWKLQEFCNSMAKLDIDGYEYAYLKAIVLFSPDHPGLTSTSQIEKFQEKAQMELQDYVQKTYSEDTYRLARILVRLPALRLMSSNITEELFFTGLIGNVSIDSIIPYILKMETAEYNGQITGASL
T1: RNA aptamer; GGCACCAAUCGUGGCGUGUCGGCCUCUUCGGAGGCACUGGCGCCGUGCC
Chain of UniProt P61619 (whole entry, looked up): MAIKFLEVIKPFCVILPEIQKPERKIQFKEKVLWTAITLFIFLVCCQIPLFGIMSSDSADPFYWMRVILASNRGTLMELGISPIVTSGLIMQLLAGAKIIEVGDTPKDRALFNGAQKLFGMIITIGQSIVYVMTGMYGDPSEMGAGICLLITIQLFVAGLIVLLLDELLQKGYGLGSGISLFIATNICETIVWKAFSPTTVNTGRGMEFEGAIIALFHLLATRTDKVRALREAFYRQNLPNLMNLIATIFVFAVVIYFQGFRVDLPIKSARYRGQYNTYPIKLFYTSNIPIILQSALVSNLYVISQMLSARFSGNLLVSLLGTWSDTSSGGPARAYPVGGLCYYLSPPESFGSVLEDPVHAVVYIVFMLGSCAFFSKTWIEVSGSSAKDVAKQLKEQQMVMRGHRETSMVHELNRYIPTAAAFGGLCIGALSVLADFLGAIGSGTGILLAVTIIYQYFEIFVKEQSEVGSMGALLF
Chain of UniProt Q16774 (whole entry, unmodified, looked up): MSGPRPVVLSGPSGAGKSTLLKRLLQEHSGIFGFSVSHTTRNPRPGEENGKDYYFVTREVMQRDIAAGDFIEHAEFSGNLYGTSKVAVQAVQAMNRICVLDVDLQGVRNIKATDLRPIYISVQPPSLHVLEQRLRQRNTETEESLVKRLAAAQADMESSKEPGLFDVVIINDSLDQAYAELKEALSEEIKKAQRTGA
Chain of UniProt Q59W62 (whole entry, looked up): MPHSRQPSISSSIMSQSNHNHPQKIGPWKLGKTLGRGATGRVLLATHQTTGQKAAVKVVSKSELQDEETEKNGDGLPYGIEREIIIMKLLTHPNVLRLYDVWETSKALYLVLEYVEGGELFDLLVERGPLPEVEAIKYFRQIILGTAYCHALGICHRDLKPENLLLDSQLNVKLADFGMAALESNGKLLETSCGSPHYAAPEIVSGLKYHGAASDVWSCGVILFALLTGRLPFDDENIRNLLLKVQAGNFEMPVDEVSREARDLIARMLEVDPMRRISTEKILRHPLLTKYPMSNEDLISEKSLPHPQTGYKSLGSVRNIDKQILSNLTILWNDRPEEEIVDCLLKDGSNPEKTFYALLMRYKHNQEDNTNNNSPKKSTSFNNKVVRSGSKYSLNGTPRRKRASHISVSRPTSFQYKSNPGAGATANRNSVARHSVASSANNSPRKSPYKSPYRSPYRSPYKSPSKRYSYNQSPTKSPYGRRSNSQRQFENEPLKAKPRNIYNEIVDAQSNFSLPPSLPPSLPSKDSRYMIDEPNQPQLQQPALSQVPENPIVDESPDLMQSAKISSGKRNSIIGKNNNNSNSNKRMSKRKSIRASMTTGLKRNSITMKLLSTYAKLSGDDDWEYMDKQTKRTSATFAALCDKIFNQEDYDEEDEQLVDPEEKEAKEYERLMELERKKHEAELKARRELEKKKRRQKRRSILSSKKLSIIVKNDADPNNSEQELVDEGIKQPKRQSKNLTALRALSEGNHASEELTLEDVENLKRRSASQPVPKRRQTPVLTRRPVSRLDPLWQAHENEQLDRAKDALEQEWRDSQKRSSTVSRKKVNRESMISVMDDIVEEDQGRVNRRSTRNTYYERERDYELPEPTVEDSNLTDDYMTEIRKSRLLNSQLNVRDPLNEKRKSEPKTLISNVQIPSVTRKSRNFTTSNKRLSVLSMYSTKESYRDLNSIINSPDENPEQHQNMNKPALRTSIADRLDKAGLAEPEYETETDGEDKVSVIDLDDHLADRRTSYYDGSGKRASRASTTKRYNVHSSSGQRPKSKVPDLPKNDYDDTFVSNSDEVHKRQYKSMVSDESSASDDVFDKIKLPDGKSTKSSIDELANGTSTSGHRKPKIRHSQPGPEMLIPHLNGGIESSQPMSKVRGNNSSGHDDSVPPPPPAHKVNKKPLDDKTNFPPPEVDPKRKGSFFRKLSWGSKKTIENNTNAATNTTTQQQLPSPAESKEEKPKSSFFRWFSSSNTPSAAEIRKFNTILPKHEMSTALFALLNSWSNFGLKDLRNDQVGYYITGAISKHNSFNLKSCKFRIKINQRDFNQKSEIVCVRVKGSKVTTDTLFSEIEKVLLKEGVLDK
Chain of UniProt P46100 (whole entry, unmodified, looked up): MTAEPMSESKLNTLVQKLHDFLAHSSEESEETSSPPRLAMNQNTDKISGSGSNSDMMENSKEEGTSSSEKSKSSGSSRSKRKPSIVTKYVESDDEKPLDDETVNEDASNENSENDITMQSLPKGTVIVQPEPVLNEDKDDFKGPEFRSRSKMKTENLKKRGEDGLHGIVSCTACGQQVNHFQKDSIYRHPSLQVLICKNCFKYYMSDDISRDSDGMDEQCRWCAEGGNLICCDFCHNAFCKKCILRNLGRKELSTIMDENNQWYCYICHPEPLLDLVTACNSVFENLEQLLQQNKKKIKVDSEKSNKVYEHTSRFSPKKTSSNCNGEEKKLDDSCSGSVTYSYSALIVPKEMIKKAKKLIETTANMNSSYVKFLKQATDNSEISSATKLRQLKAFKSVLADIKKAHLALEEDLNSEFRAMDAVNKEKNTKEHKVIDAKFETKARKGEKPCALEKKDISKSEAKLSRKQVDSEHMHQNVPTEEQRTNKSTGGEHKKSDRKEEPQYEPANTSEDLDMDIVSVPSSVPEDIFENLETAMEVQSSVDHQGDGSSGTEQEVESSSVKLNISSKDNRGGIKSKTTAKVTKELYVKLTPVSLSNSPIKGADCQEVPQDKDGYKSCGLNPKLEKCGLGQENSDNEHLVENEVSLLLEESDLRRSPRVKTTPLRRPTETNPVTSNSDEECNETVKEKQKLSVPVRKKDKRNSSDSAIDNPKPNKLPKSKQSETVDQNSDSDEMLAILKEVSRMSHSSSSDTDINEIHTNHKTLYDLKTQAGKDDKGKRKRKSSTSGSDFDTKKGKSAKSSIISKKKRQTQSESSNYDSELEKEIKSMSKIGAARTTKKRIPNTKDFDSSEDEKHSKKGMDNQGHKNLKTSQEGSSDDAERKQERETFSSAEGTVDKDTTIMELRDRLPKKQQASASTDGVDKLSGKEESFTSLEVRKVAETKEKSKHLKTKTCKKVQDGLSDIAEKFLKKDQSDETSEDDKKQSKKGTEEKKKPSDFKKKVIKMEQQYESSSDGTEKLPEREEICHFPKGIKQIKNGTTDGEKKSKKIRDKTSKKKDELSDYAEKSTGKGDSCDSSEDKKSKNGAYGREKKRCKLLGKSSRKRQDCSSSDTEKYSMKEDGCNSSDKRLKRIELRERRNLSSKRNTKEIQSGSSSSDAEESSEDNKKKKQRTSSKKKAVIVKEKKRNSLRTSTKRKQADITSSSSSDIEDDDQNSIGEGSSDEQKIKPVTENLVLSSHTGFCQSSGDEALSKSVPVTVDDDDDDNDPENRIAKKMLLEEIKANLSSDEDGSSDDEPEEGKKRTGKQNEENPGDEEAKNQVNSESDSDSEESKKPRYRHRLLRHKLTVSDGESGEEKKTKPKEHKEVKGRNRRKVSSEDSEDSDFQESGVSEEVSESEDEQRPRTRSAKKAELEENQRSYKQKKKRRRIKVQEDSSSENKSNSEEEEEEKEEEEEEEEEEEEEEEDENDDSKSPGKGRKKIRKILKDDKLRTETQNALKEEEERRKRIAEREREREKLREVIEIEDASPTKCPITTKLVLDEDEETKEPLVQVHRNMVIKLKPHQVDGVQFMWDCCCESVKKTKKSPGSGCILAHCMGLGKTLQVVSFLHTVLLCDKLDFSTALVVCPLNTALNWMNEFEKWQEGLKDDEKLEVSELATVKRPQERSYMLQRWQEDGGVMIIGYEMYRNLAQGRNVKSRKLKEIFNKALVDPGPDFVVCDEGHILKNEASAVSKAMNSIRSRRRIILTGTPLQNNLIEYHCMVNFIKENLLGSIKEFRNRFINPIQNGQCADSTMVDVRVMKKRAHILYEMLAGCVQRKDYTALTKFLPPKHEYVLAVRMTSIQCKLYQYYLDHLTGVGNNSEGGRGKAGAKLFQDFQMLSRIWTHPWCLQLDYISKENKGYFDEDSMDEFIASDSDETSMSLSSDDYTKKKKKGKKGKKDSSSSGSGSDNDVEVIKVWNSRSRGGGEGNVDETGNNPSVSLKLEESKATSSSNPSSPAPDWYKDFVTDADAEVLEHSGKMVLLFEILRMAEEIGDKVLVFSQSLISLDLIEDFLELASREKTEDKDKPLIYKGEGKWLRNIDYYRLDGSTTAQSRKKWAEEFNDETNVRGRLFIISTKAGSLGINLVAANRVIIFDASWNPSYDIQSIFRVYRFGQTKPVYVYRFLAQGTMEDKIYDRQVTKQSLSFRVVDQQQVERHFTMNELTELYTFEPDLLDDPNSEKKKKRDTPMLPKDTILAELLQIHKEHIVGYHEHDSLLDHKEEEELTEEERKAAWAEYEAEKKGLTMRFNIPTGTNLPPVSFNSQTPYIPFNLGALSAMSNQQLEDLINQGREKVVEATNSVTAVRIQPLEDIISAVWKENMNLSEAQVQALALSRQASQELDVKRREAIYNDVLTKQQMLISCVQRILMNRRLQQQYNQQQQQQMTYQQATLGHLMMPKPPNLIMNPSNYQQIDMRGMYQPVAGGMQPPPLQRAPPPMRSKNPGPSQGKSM

SMILES | target or system | assay | test system | conditions | how to read | measurement | value
CN(CCO)c1ccc(/C=C(\C#N)c2ccc(C#N)cc2)cc1 | T1, RNA aptamer | fluorescence titration, Hill fit |  | apparent |  | Kd | 38.8 nM
Cc1onc(-c2ccccc2)c1-c1ccc(S(N)(=O)=O)cc1 | COS-7 |  |  | 50 µM, 24 h, 0.1% DMSO, unit not given | baseline: vehicle control | apoptotic cells | 0.69 ± 0.08
Cc1cc(C(C#N)c2ccc(Cl)cc2)c(Cl)cc1NC(=O)c1cc(I)cc(I)c1O (stereo not drawn) | Nuclear receptor subfamily 2 group C member 2 ligand-binding domain | SPR imaging |  | 600 nM |  | koff | 1.11e-05 s⁻¹
Nc1nc2c(ncn2[C@@H]2O[C@H](COP(=O)(O)OP(=O)(O)O)[C@@H](O)[C@H]2O)c(=O)[nH]1 | GUK1 (Homo sapiens, UniProt Q16774, R137A) | binding, ITC |  |  |  | ΔH | -8.59 ± 0.4 kcal/mol
Cc1cc(-c2ccnc3[nH]cc(F)c23)cc(F)c1[C@@]1(O)[C@H](C)CN(C(=O)CN)C[C@@H]1C | AKT2 and AKT3 | ATP probe binding, KiNativ, measured: ATP loop | HEK293T cell lysate | 10 µM |  | inhibition | -97.7%
Oc1ccc(/C=C/c2cc(O)cc(O)c2)cc1 | O-methyltransferase (Sorghum bicolor, UniProt A0A1B6PFV1) | ITC |  | with: ADN+ |  | -TΔS | 5.97 kcal/mol
O=c1nc(SCc2cc(F)cc(C(F)(F)F)c2)nc(SCc2ccc3sccc3c2)[nH]1 | TOP2A (Homo sapiens, UniProt P11388) | DNA cleavage |  | 125 µM |  | mean linear DNA | 6.74%
N[C@H](Cc1ccccc1)C(=O)O | PAL1 (Petroselinum crispum, UniProt P24481, Y110F) | binding, ITC |  |  |  | ΔG | -6.3 kcal/mol
O=C(Nc1cccc2c(=O)cc(-c3nnn[nH]3)oc12)c1ccc(OCCCCc2ccccc2)cc1 | LRRC8A/LRRC8C (Homo sapiens, UniProt Q8IWT6+Q8TDW0, L134K/L136K) | whole-cell patch clamp | HCT116 LRRC8-/- transfected | at +100 mV |  | Hill coefficient | 0.95
C[C@H](N)C(=O)N[C@@H](CCCNC(=N)N)C(=O)N[C@H](C(=O)N[C@@H](CCCCN(C)C)C(=O)N[C@@H](CCC(N)=O)C(=O)N[C@H](C(=O)N[C@@H](C)C(=O)N[C@@H](CCCNC(=N)N)C(=O)N[C@@H](CCCCN)C(=O)N[C@@H](CO)C(=O)N[C@H](C(=O)NCC(=O)NCC(=O)N[C@@H](CCCCN)C(=O)N[C@@H](C)C(=O)N[C@@H](Cc1ccc(O)cc1)C(=O)O)[C@@H](C)O)[C@@H](C)O)[C@@H](C)O | Transcriptional regulator ATRX (ATRX, Homo sapiens, UniProt P46100, F284Y/K251R) | isothermal titration calorimetry |  | pH 7.5, 25.0 °C |  | binding free energy | -5.71 kcal/mol
CCCCCCCCC(=O)c1cc(O)c(O)c(O)c1 | COS-7 |  |  | 10 µM, 24 h, 0.1% DMSO, unit not given | baseline: vehicle control | confluence | 0.83 ± 0.07
COc1cc(OC)c2c(=O)[nH]c(-c3cc(C)c(OCCO)c(C)c3)nc2c1 | OCI-Ly1 |  |  | 0.5 µM, 120 h |  | viability | 146%
CC[C@@H]1[C@H](F)C(=O)N[C@@H]1COc1nccc2cc(C(N)=O)c(OC)cc12 | CAMK2G (Homo sapiens, UniProt Q13555) | ATP-site probe binding, inhibitor, ActivX ATP probe profiling | THP-1 cell lysate | probe site Lys1 |  | IC50 | 2900 nM
C=C1CN(S(=O)(=O)c2ccc(C)cc2)CCCN(Cc2ccccc2)CCCN(S(=O)(=O)c2ccc(C)cc2)C1 | Protein transport protein Sec61 subunit alpha isoform 1 (Homo sapiens, UniProt P61619) | measured: control signal peptide-FLuc reporter | HEK293 | 0.013 mM, 6 h |  | FLuc/RLuc ratio | 1.01
CCCC[C@H]1CN(c2cccc(OC(F)(F)F)c2)C(=O)CN1Cc1cncn1Cc1ccc(C#N)c(Oc2ccccc2)c1 | Cryptococcus neoformans farnesyltransferase | enzyme activity, inhibitor, fluorescence |  | with: 1 µM FPP, 0.5 µM dansylated peptide |  | IC50 | 150 ± 60 nM
Cc1cn(-c2cc(NC(=O)c3ccc(C)c(Nc4nccc(-c5cccnc5)n4)c3)cc(C(F)(F)F)c2)cn1 | NUDT1 (Homo sapiens, UniProt P36639) | activator |  | 200 µM, screen |  | activity | > 200%
O=C(O)c1cc(O)c2c(c1)C(=O)c1cccc(O)c1C2=O | HepaRG co-cultured with HK-2 | MTT |  | 16.67 µM, 24 h | baseline: untreated control | cell viability | 97 ± 14.8%
CCc1cnn2c(NCc3ccc[n+]([O-])c3)cc(N3CCCC[C@H]3CCO)nc12 | BRD4 (Homo sapiens, UniProt O60885) | 19F NMR, measured: tyrosine 97 |  | 94 µM | baseline: free protein | chemical shift change | -0.192 ppm
Oc1ccccc1-c1n[nH]cc1-c1ccnc2ccccc12 | Serine/threonine-protein kinase GIN4 (GIN4, Candida albicans, UniProt Q59W62) | kinase binding, MIB/MS competition | Candida albicans lysate | 1 µM | baseline: DMSO, negative = stronger binding | log2 fold change | 0.13
CN1CC2c3ccccc3Oc3ccc(Cl)cc3C2C1 (stereo not drawn) | Nuclear receptor subfamily 2 group C member 2 ligand-binding domain | SPR imaging |  | 600 nM |  | koff | 1.21e-05 s⁻¹
Cc1ccc(N2CC(C(N)=O)CC2=O)cc1 (stereo not drawn) | YTH domain-containing protein 1 (Homo sapiens, UniProt Q96MU7) | binding, affinity selection mass spectrometry |  |  | baseline: other proteins in batch | log fold enrichment | 0

Repeated from above:
SMILES | target or system | assay | test system | conditions | how to read | measurement | value
Cc1onc(-c2ccccc2)c1-c1ccc(S(N)(=O)=O)cc1 | COS-7 |  |  | 50 µM, 24 h, 0.1% DMSO, unit not given | baseline: vehicle control | apoptotic cells | 0.69 ± 0.08
Cc1cc(C(C#N)c2ccc(Cl)cc2)c(Cl)cc1NC(=O)c1cc(I)cc(I)c1O (stereo not drawn) | Nuclear receptor subfamily 2 group C member 2 ligand-binding domain | SPR imaging |  | 600 nM |  | koff | 1.11e-05 s⁻¹
Nc1nc2c(ncn2[C@@H]2O[C@H](COP(=O)(O)OP(=O)(O)O)[C@@H](O)[C@H]2O)c(=O)[nH]1 | GUK1 (Homo sapiens, UniProt Q16774, R137A) | binding, ITC |  |  |  | ΔH | -8.59 ± 0.4 kcal/mol
